# Measured values from different studies.
# Protocols differ between the studies behind these lines. Values joined by “and” are separate records of one study, mostly repeats; a detail may differ. pIC50: −log10 of the molar value.
SMILES,target or system,assay,system,conditions,scale,measurement,result
C=C[C@]1(C)C[C@@H](OC(=O)CSc2ccc(NC(=O)c3ccco3)cc2)[C@]2(C)[C@H](C)CC[C@]3(CCC(=O)[C@H]32)[C@@H](C)[C@@H]1O,Mycoplasma gallisepticum,,"infected chickens, lung","intramuscular, 70 mg/kg daily x3, 72 h",relative to: 0 h,lung mycoplasma load reduction,3.35 log10 CFU/mL and 2.9 log10 CFU/mL and 4.13 log10 CFU/mL and 3.13 log10 CFU/mL and 3.74 log10 CFU/mL and 3.59 log10 CFU/mL and 3.12 log10 CFU/mL
Nc1nc(-c2ccccc2)nc2[nH]nc(Nc3ccc(OC(F)(F)F)cc3)c12,Human rhinovirus 8,"cytopathic effect, inhibitor",HeLa,,,pIC50,5.17
CC1(C)[C@H](NC(=O)/C(=N\OC2(C(=O)O)CCCC2)c2csc(N)n2)C(=O)N1OS(=O)(=O)O,Enterobacter cloacae,agar dilution,CDC 1000654,,,MIC,4 µg/mL
Nc1nc(-c2ccccc2)nc2[nH]nc(Nc3ccc(Cl)cc3)c12,Human rhinovirus 8,"cytopathic effect, inhibitor",HeLa,,,pIC50,5.49
CCc1nc2cc(Br)ccn2c1C(=O)NCc1ccc2oc(-c3ccc(Cl)cc3)nc2c1,Mycobacteroides abscessus,RFP fluorescence,"ATCC 19977, RFP reporter",,,MIC90,> 25 µM
Fc1ccc2c(c1)c1nc3ccc(Br)cc3c-1cn2Cc1cn(-c2ccccc2I)nn1,Giardia duodenalis trophozoites,"UHPLC-Q-TOF-MS metabolomics, refers to: lauric acid ethyl ester",,"IC50, 0.01783 h",relative to: 0.25% DMSO,fold change,2.7
Nc1nc(-c2ccc(C(F)(F)F)cc2)nc2[nH]nc(Nc3ccc(F)cc3)c12,Human rhinovirus 8,"cytopathic effect, inhibitor",HeLa,,,pIC50,6.11
CC(=O)OC[C@H]1O[C@@H](Sc2sc(C(=O)c3ccc(C)cc3)c(N)c2-c2nc3ccccc3s2)[C@H](OC(C)=O)[C@@H](OC(C)=O)[C@@H]1OC(C)=O,human alphaherpesvirus 1,plaque reduction,,non-toxic concentration,,viral titre reduction,0%
Nc1nc(-c2ccccc2)nc2[nH]nc(Nc3cccc(Cl)c3)c12,Human rhinovirus 8,"cytopathic effect, inhibitor",HeLa,,,pIC50,4.35
CCc1nc2ccc(OC(F)(F)F)cn2c1C(=O)NCc1ccc2oc(-c3ccc(OC(F)(F)F)cc3)nc2c1,Mycobacteroides abscessus,RFP fluorescence,"ATCC 19977, RFP reporter",,,MIC90,> 50 µM
[2H]C([2H])([2H])C1(C([2H])([2H])[2H])NC(=O)N(c2ccc(F)c(C(C)(F)F)c2)C1=O,Schistosoma haematobium,,"adult, hamster","oral, single dose",,ED50,8.5 mg/kg
CC(=O)OC[C@H]1O[C@@H](Sc2sc(C(=O)c3ccc(Br)cc3)c(N)c2-c2nc3ccccc3s2)[C@H](OC(C)=O)[C@@H](OC(C)=O)[C@H]1OC(C)=O,human alphaherpesvirus 1,plaque reduction,,non-toxic concentration,,viral titre reduction,40%
C#CCO/N=C(\C(=O)N[C@@H]1C(=O)N(OS(=O)(=O)O)C1(C)C)c1nsc(N)n1,Enterobacter cloacae,agar dilution,"ATCC 43560, susceptible",,,MIC,4 µg/mL
FC(F)(F)c1cccc(CNc2nc(NC3CCN(Cc4ccccc4)CC3)c3nc[nH]c3n2)c1,Cryptococcus neoformans,"RNA-seq, refers to: YMR1 (CNAG_00390) mRNA",,"48 µg/mL, 3 h",relative to: untreated wild type,log2 fold change,-0.623
N#Cc1ccc(Nc2n[nH]c3nc(-c4ccccc4)nc(N)c23)cc1,Human rhinovirus 8,"cytopathic effect, inhibitor",HeLa,,,pIC50,4.12
Cc1nc2ccc(OC(F)(F)F)cn2c1C(=O)NCc1ccc2oc(-c3ccc(OC(F)(F)F)cc3)nc2c1,Mycobacteroides abscessus,RFP fluorescence,"ATCC 19977, RFP reporter",,,MIC90,> 50 µM
OB(O)c1ccc(C(F)(F)F)s1,Staphylococcus epidermidis,,,"100 µM, 10 h",relative to: untreated,growth,23.7% and 32.5% and 69.2% and 64.1% and 46.6%
CC(=O)OC[C@H]1O[C@@H](Sc2sc(C(=O)c3ccc(Cl)cc3)c(N)c2-c2nc3ccccc3s2)[C@H](OC(C)=O)[C@@H](OC(C)=O)[C@H]1OC(C)=O,human alphaherpesvirus 1,plaque reduction,,non-toxic concentration,,viral titre reduction,10%
CC1CC2(N=CCS2)C2(O)OC3CC4(C)C(CC3OC2O1)CC1OC12C4C(O)C(=O)C1(C)C(C3=CC(=O)OC3)CCC12O (stereo not shown),Oncopeltus fasciatus,,,"diet, concentration not given",,eggs per female,294
Cc1nc2ccc(OC(F)(F)F)cn2c1C(=O)NCc1ccc2oc(-c3ccc(Cl)cc3)nc2c1,Mycobacteroides abscessus,RFP fluorescence,"ATCC 19977, RFP reporter",,,MIC90,> 100 µM
COc1c(NC(=O)c2ccc(NC(=O)c3ccc(NC(=O)[C@H](CC#N)NC(=O)c4ccc(NC(=O)/C(C)=C/c5ccc(O)cc5)cc4)cc3)c(OC)c2O)ccc(C(=O)O)c1O,Salmonella enterica,"microbial growth, broth dilution",TYPHIMURIUM,,,MIC,0.063 µg/mL
COC1CN([C@H]2CC[C@H]([C@@]3(C)Oc4c(Cl)cc(C(=O)NCc5c(SC)cc(C)[nH]c5=O)c(C)c4O3)CC2)C1,,"RNA-seq, refers to: TGM3 mouse homolog","mouse, HT-1376 xenograft, whole blood",dose not given,relative to: vehicle,log2 fold change,0.024
Nc1ncnc2[nH]nc(Nc3ccc(F)c(F)c3)c12,Human rhinovirus 8,"cytopathic effect, inhibitor",HeLa,,,pIC50,4.57
CC(C)(C)NCC(SS(=O)(=O)O)c1ccccc1 (stereo not shown),Schistosoma mansoni,perfusion day 44,infected Swiss Webster mice,"600 mg/kg single dose, 1056 h, dosed day 7 post-infection",relative to: vehicle control,spleen weight decrease,40%
C=CC(=O)Nc1cccc(Cn2ncc3cnc(Nc4cnn(CCOC)c4)nc32)c1,CDK11 human,"binding, KINOMEscan",,100 nM,lower = stronger binding,percent of control,100%
CCc1nc2ccc(C(F)(F)F)cn2c1C(=O)NCc1ccc2oc(-c3ccc(OC(F)(F)F)cc3)nc2c1,Mycobacteroides abscessus,RFP fluorescence,"ATCC 19977, RFP reporter",,,MIC90,> 100 µM
CC(C)[C@H]1NC(=O)[C@H](Cc2ccccc2)NC(=O)[C@@H](C(C)C)NC(=O)[C@@H](C)NC(=O)[C@H](CO)NC(=O)[C@@H](Cc2c[nH]c3ccccc23)NC(=O)[C@@H](CO)NC1=O,Vibrio vulnificus,broth dilution,,,,MIC90,> 50 µM
COc1cc(Nc2n[nH]c3nc(-c4ccccc4)nc(N)c23)cc(OC)c1OC,Human rhinovirus 8,"cytopathic effect, inhibitor",HeLa,,,pIC50,5.12
C=C(NC(=O)c1csc(-c2nc3c(cc2O)-c2nc(cs2)C(=O)NC(C(C)O)C(=O)NC(=C(C)OC)c2nc(cs2)C(=O)NC2c4nc(cs4)C(=O)NC(COC(=O)c4c5c6c(cccc6n4O)COC(=O)C(OC4CC(C)(O)C(N(C)C)C(C)O4)C2OC5)c2nc-3cs2)n1)C(N)=O (stereo not shown),Enterococcus faecium,agar dilution,vancomycin-intermediate,25 isolates,,MIC90,0.0312 µg/mL
Cc1c(CN(C)C(=O)/C=C/c2cnc3c(c2)CC(N)C(=O)N3)oc2ccccc12 (stereo not shown),Enterobacter cloacae,broth microdilution,BAA-2468,,,MIC,8 µg/mL
CCc1nc2ccc(Cl)cn2c1C(=O)NC/C=C(\C)CC/C=C(\C)CCC=C(C)C,Mycobacteroides abscessus,RFP fluorescence,"ATCC 19977, RFP reporter",,,MIC90,> 100 µM
CC1(C)[C@H](NC(=O)/C(=N\OCc2c(Cl)cccc2Cl)c2nsc(N)n2)C(=O)N1OS(=O)(=O)O,Enterobacter cloacae,agar dilution,CDC 1000654,,,MIC,> 64 µg/mL
Cc1cccc2c1N(C(=O)n1ccnn1)CC2,Oryza sativa,,,concentration not given,,plant height,21.4 cm and 20.8 cm and 21.9 cm and 21.5 cm and 20.6 cm and 23.2 cm and 22.8 cm and 22.7 cm
OC(Cn1cncn1)(Cn1cc(-[c-]2cccc2)nn1)c1ccc(F)cc1F.[Cl-].[Co+3].c1cc[cH-]c1 (racemic),Trichuris muris,Worminator,adult males and females,"100 µM, day 2",,motility inhibition,29%
Cc1ncsc1-c1ccc(C(C)NC(=O)C2CC(O)CN2C(=O)C(NC(=O)CCCCCCCCCCN2CCCC(Nc3ncc(Cl)c(Nc4ccccc4S(=O)(=O)C(C)C)n3)C2)C(C)(C)C)cc1 (stereo not shown),22Rv1,"RNA-seq, refers to: SPATA3-AS1",,concentration not given,relative to: DMSO,log2 fold change,-3.94
Cc1ccn2c(C(=O)NCc3ccccc3)c(C)nc2c1,Mycobacteroides abscessus,RFP fluorescence,"ATCC 19977, RFP reporter",,,MIC90,> 100 µM
COc1ccc(Nc2n[nH]c3nc(-c4ccccc4)nc(N)c23)cc1,Human rhinovirus 8,"cytopathic effect, inhibitor",HeLa,,,pIC50,4.95

# Excerpt of the above:
SMILES,target or system,assay,system,conditions,scale,measurement,result
Cc1cccc2c1N(C(=O)n1ccnn1)CC2,Oryza sativa,,,concentration not given,,plant height,21.4 cm and 20.8 cm and 21.9 cm and 21.5 cm and 20.6 cm and 23.2 cm and 22.8 cm and 22.7 cm
OC(Cn1cncn1)(Cn1cc(-[c-]2cccc2)nn1)c1ccc(F)cc1F.[Cl-].[Co+3].c1cc[cH-]c1 (racemic),Trichuris muris,Worminator,adult males and females,"100 µM, day 2",,motility inhibition,29%
Cc1ncsc1-c1ccc(C(C)NC(=O)C2CC(O)CN2C(=O)C(NC(=O)CCCCCCCCCCN2CCCC(Nc3ncc(Cl)c(Nc4ccccc4S(=O)(=O)C(C)C)n3)C2)C(C)(C)C)cc1 (stereo not shown),22Rv1,"RNA-seq, refers to: SPATA3-AS1",,concentration not given,relative to: DMSO,log2 fold change,-3.94
Cc1ccn2c(C(=O)NCc3ccccc3)c(C)nc2c1,Mycobacteroides abscessus,RFP fluorescence,"ATCC 19977, RFP reporter",,,MIC90,> 100 µM
